Results pooled from the literature.
Numbered parts are unrelated; each lists some results of a single study.

Set 1 — mode: inhibitor; tested at: 20 µM
Target: Replicase polyprotein 1ab, nsp13 helicase (rep, Severe acute respiratory syndrome coronavirus 2, UniProt P0DTD1)
| SMILES | inhibition [%] |
| --- | --- |
| CNC(=O)c1cnn(-c2nc(N)c3ncn([C@@H]4O[C@H](CO)[C@@H](O)[C@H]4O)c3n2)c1 | -4.17 |
| Fc1ccc2c(CCNCc3cccc(OCC(F)(F)C(F)F)c3)c[nH]c2c1 | 12.1 |
| CCCCCCCCCCCCCCCC[N+](C)(C)CCN(Cc1ccc(OC)cc1)c1ncccn1 | 35.6 |
| CN1CCC(=C2c3ccccc3CC(=O)c3sccc32)CC1 | 7.79 |
| COc1cc(/C=C/c2ccc(O)cc2)cc(OC)c1 | 2.9 |
| CS(=O)(=O)c1cccc(CNc2nc(Nc3ccc4c(c3)CCC(=O)N4)ncc2C(F)(F)F)c1 | 5.48 |
| O=C(O)c1ccc(-c2c[nH]c3ncc(-c4ccccc4)cc23)cc1C1CCCC1 | 7.84 |
| NC(N)=NCCNS(=O)(=O)c1cccc2cnccc12 | -2.95 |
| COc1ccc2[nH]c(I)c(CCNC(C)=O)c2c1 | -0.45 |
| COC(=O)Nc1nc2ccc(SC(C)C)cc2[nH]1 | 3.28 |
| CCC(=O)N[C@@H]1Cc2ccccc2[C@H](c2ccccc2)C1 | 2.73 |
| CCCN1C[C@H](CSC)C[C@@H]2c3cccc4[nH]cc(c34)C[C@H]21 | -3.53 |
| Cc1sc2c(c1C)C(c1ccc(Cl)cc1)=N[C@@H](CC(N)=O)c1nnc(C)n1-2 | 6 |
| C[C@]12CC[C@H]3[C@@H](CCC4=CC(=O)CC[C@@H]43)[C@@H]1CC[C@@H]2O | -2.74 |
| COc1cc(C(=O)NCCCCCC(=O)O)cc(OC)c1OC | 1.54 |
| COC(=O)C1=C(C)NC(C)=C(C(=O)OCCN(C)Cc2ccccc2)C1c1cccc([N+](=O)[O-])c1 (centres unmarked) | 1.52 |
| Cc1cc(F)c(Nc2ncnc3cc(OCc4ccccc4)ccc23)cc1O | -6.39 |
| O=C(O)CCCCCCCCCCCCCCc1ccc(I)cc1 | 64.5 |
| CC(C)n1c(=O)n(C(=O)NC2C[C@H]3CC[C@@H](C2)N3C)c2ccccc21 (some centres unmarked) | -1.12 |
| O=C(O)c1ccc2[nH]cc(CCCCN3CC=C(c4ccccc4)CC3)c2c1 | 7.92 |
| CCOc1ccc(Cc2cc([C@]34OC[C@](CO)(O3)[C@@H](O)[C@H](O)[C@H]4O)ccc2Cl)cc1 | 2.89 |
| CC[C@]12CCCN3CCc4c(n(c5ccccc45)[C@@](O)(C(=O)OC)C1)[C@@H]32 | 4 |
| CCCCCOc1ccc(-c2cc(-c3ccc(C(=O)N[C@H]4C[C@@H](O)[C@@H](O)NC(=O)[C@@H]5[C@@H](O)[C@@H](C)CN5C(=O)[C@H]([C@H](O)CC(N)=O)NC(=O)[C@H]([C@H](O)[C@@H](O)c5ccc(O)c(OS(=O)(=O)O)c5)NC(=O)[C@@H]5C[C@@H](O)CN5C(=O)[C@H]([C@@H](C)O)NC4=O)cc3)no2)cc1 | 44.1 |
| COc1cc(OC)c(OC)cc1C=O | 4.52 |

Set 2 — method: RNA Bind-n-Seq; form: RNA; sample: in vitro; tested at: 365 nM; reference: no-protein control; direction: higher = stronger binding
Target: RNA binding protein fox-1 homolog 2, RRM domain, GST-SBP tag (RBFOX2, Homo sapiens, UniProt O43251-10, residues 100-194)
Setting: natural RNA segment, single round, ends assumed
Constant ends, left off below: GGGAGUUCUACAGUCCGACGAUC … UGGAAUUCUCGGGUGCCAA
Construct (chain): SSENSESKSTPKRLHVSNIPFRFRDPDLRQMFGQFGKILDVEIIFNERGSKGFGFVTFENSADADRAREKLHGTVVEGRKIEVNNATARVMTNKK
| Sequence | RBNS enrichment (R) |
| --- | --- |
| UGAUUCAACAGAUUCAAACUUCCUACAGCCUUCUACUGAUGUCUUACAAGCUCUUGCCUCUGUGCCUUUCUCAUGCUAUUCUUUUUGCUUAGAUUGCUCUUUGGUCCCAG | 0.42 |
| ACAAACAAAAAAAUAAUCUCUAUGUAUGUGUUGGAUAAAGUCUACAGACUGACUAACAUGCAUUAGCAAAUGGAGCAUCAGUAGGUAGCAACAUGAUAAUUUAUGUAACU | 0.351 |
| CAUAGCCUAGAGCUCAGUUUUAGUUUUAACAUUGUGAAAAUAUUAAAAGAAUCUUGUAACUUUAUUCUUUUUUCUCCUGCUGAAAAAAAAAAUUAAACCAAUCGUAUGAA | 1.24 |
| CAUGUGUAAAUGGAAAAUAUGUCUUACAAAUAGAGAUGCACUAAAACAACAAAAACAACAACAAAACAAACGUUUACAUCCUAGGAGGGAAAAAAAACAAAAGUCUUUGU | 0.446 |
| AUGUAGCUCAUAGUCCCCACAAUGUCCUGGGAAGGAACAGAGGACUGGUACAGUCCCAGCUCUGCUCUGGUGUAUGCGAUUUUUGAAAGACCUGUCUUCUGUGAGCUGUG | 2.06 |
| AAGGGAUUCUCCUCAGAACCCAUUGAGUCCUCCACCCCACAGUUGUGCUUGGAAGCCUGUUGACUGUGCUUAAGGUUAGGCAUUUAGGAAGCACACUGCUUUUUAAACGA | 0.527 |
| AAAUAGAUGAGCACAUUUAUAACUCUAAAUUAGACUUUCUAUCAAAUGGGACCAAACAUAUGGAAGGGGCUGCUGUCCUGCCUCAAUUUAGCCAAGACUUGUCUUGUCUC | 0.287 |
| AGUGGUGUCAGGAUGAGGUGGCCCCUGGCUUUCUGGUUCACAACAAGCUAGAGAUUUUCAAAGCUACCCUUUUGAGUAAAACCCCUUAUUAAAAGAGAAACCAUGACUGG | 0.379 |

Set 3 — cell line: HEK-293T; observed: pseudovirus infection; method: FDA-approved drug library screen; organism: VSV pseudotyped with SARS-CoV-2 spike; tested at: 10 µM; time: 16 h; reference: vehicle-treated
| SMILES | GFP-positive cells [%] |
| --- | --- |
| CCOC(=O)C1=C(C)NC(C)=C(C(=O)OC)C1c1cccc(Cl)c1Cl (centres unmarked) | 36.2 |
| CN(C)C(=O)Oc1ccc[n+](C)c1 | 95.3 |
| O=C1c2cccc3c2[C@H](CCC3)CN1[C@@H]1CN2CCC1CC2 | 88.4 |

Set 4 — method: RNA Bind-n-Seq; form: RNA; sample: in vitro; tested at: 1 µM; setting: whole 134-nt RNA, ends assumed; added: 150 mM KCl; reference: input library; direction: higher = stronger binding
Target: Ras GTPase-activating protein-binding protein 1, C-terminal RGG region (G3BP1, Homo sapiens, UniProt Q13283)
UniProt Q13283, sequence (whole entry, looked up): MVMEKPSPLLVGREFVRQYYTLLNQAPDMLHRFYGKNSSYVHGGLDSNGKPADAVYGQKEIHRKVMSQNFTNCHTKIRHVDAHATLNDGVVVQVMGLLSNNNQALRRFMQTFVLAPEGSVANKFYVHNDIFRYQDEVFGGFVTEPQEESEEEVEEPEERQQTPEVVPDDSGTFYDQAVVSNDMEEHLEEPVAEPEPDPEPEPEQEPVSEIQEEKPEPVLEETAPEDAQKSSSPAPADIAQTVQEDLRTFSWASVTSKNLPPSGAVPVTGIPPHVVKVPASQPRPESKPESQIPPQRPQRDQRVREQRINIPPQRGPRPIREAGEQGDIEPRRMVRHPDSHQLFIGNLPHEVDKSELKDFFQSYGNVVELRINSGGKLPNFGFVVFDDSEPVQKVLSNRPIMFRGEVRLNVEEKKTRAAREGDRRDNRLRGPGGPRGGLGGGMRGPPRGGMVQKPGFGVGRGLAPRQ
Constant ends, left off below: GGGAGUUCUACAGUCCGACGAUC … UGGAAUUCUCGGGUGUCAAGG
| Sequence | log2 enrichment |
| --- | --- |
| UGGGAGGUGGAUUUUGUUUAUUUUUUUAGCUCAUUUCCAGGGGUGGGAAUUUUUUUUUAAUAGGUGUCAUGAAUAAAGUUGUUUUUGAAA | 3.18 |
| UCAAGUCCUGUGCUACACAUCGUAUGUACCGAAUCGGUUUUUUUGGUUUGGUGGAAAGUAUUAUGUUACGCCGUUCGGAUCUGCACUUCC | -1.4 |
| AGUCCUGUGCUACACAUCGUAUGUACCGAAUCGGAAAAAGGAAAAAGGAAAAAGGGGAAAGUAUUAUGUUACGCCGUUCGGAUCUGCACU | -1.75 |
| CCUGUGCUACACAUCGUAUGUACCGAAUCGGGGAAAAAAGGGGAAAAAAGGGAAAAAAGGAAAGUAUUAUGUUACGCCGUUCGGAUCUGC | -1.77 |
| UGGGAGGUGGAUUUUGUUUAUUUUUUUAGCUCAUUUCCACGGGUGGGAAUUUUUUUUUAAUAUGUGUCAUGAAUAAAGUUGUUUUUGAAA | 3.5 |
| UUAGAAGAAUUUGGAAGGCCUUAAAUAUAGUAGCUUAGUUUGAAAAAUGUGAAGGACUUUCGUAACGGAAGUAAUUCAAGAUCAAGAGUA | -2.85 |
| CCUCAAGUCCUGUGCUACACAUCGUAUGUACCGAAUCGGGGAGGGGAGGAGGGAAAGUAUUAUGUUACGCCGUUCGGAUCUGCACUUCCA | 0.391 |
| ACCAUGCAGGUGGGCAUCUUUGGGAAGUGGGGCAAGGGGGGGAUAGGGAGGGGGGUAACACUAAAGGAACAGGUGGUCCCAGGUCGUUUC | -0.887 |

Set 5 — method: universal PBM; form: double-stranded DNA, one strand shown; sample: in vitro; tested at: not given; direction: higher = stronger binding
Target: Sal-like protein 4, full length isoform B (SALL4, Homo sapiens, UniProt Q9UJQ4-2, residues 1-616)
Setting: 8-mer, flanks averaged, mean of replicates
Construct (chain): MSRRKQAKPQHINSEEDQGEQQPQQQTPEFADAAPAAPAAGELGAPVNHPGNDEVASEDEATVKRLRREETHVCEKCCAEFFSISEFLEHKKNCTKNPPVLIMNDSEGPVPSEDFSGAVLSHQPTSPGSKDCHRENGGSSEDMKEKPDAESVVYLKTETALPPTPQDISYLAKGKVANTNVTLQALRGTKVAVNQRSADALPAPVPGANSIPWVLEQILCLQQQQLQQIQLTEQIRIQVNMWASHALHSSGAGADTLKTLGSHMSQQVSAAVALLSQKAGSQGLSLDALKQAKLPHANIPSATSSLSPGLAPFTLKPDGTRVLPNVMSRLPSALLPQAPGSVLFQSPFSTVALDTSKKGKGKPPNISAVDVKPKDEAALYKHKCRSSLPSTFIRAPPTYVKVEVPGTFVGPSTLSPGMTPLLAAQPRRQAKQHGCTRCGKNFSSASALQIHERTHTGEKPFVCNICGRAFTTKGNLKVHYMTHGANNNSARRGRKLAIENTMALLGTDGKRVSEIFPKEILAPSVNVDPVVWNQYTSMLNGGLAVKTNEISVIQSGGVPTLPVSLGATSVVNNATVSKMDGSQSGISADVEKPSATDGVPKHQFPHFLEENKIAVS
| Sequence | E-score |
| --- | --- |
| GAAATCCC | -0.0993 |
| GAAGGGCA | -0.194 |
| GCCGAAGC | -0.28 |
| CAAATACC | 0.0526 |
| CTACAAGC | -0.114 |
| CGATATGA | 0.225 |
| CAGGCACG | -0.266 |
| CACGGCCG | -0.137 |

Mixed results — observed: enzyme activity; mode: inhibitor
Target: Replicase polyprotein 1ab, main protease (rep, Severe acute respiratory syndrome coronavirus 2, UniProt P0DTD1)
| SMILES | organism | tested at | setting | added | endpoint | value |
| --- | --- | --- | --- | --- | --- | --- |
| S=C=Nc1cccc(NC(=S)NCCCCNC(=S)Nc2cccc(N=C=S)c2)c1 | SARS-CoV-2 | – | – | DTT | IC50 | > 20 µM |
| CN1CCN(c2cccc(Nc3nc4c(-c5ccc(S(C)(=O)=O)cc5)cccn4n3)c2)CC1 | – | 20 µM | primary screen | – | inhibition | 33.8% |

Some of these lines once more (set 1):
| SMILES | inhibition [%] |
| --- | --- |
| COC(=O)Nc1nc2ccc(SC(C)C)cc2[nH]1 | 3.28 |
| CCC(=O)N[C@@H]1Cc2ccccc2[C@H](c2ccccc2)C1 | 2.73 |
| CCCN1C[C@H](CSC)C[C@@H]2c3cccc4[nH]cc(c34)C[C@H]21 | -3.53 |
